Results from different studies.
Compare with care: the assays were run in different laboratories. ± gives the spread as reported.
PPARG: Peroxisome proliferator-activated receptor gamma (PPARG, Homo sapiens, UniProt P37231)
Sequence of UniProt P37231 (whole entry, looked up): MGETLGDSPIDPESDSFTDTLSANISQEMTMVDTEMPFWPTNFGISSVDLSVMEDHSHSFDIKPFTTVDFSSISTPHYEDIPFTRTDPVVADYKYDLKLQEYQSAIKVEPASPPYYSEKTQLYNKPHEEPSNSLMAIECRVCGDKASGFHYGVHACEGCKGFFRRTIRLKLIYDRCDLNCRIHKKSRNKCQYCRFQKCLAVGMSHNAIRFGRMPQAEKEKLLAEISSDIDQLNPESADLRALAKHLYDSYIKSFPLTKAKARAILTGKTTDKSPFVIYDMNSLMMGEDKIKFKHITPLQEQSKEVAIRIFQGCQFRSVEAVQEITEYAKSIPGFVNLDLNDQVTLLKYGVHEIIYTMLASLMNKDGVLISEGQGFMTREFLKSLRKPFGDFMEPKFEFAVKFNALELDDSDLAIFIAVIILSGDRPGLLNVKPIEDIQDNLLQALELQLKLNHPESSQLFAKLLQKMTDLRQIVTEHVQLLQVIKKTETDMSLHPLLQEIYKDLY
Rhomboid protease AarA: Rhomboid protease AarA (Providencia stuartii, UniProt P46116)
Sequence of UniProt P46116 (whole entry, looked up): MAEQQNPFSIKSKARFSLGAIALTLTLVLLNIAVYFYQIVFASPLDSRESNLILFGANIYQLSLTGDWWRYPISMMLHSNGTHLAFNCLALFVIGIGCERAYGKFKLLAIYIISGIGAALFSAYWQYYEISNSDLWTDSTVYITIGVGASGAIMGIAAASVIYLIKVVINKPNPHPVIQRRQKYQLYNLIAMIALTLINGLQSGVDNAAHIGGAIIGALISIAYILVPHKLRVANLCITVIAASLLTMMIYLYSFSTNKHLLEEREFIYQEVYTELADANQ
Sequence of UniProt Q9Y4K4 (whole entry, looked up): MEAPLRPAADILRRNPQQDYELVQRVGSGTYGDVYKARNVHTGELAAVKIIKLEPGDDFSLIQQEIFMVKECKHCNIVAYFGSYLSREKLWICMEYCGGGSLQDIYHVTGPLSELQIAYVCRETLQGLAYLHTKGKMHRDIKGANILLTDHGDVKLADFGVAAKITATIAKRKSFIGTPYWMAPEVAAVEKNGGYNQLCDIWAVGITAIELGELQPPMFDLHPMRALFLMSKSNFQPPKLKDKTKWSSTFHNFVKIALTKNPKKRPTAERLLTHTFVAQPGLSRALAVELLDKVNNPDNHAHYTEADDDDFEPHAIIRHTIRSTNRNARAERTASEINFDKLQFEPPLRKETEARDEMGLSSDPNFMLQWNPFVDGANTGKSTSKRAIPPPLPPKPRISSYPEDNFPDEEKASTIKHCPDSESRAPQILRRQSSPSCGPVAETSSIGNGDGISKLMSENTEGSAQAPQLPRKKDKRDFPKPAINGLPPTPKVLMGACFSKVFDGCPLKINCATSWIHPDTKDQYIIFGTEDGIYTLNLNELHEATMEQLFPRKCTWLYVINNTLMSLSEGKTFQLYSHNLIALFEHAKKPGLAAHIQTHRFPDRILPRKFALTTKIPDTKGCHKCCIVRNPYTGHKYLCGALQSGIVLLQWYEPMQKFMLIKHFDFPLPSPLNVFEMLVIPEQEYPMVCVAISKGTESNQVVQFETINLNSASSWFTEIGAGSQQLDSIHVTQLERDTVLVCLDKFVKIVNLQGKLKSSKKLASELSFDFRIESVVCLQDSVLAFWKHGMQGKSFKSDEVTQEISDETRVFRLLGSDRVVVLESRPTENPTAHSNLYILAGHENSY
Sequence of UniProt P10721 (whole entry, looked up): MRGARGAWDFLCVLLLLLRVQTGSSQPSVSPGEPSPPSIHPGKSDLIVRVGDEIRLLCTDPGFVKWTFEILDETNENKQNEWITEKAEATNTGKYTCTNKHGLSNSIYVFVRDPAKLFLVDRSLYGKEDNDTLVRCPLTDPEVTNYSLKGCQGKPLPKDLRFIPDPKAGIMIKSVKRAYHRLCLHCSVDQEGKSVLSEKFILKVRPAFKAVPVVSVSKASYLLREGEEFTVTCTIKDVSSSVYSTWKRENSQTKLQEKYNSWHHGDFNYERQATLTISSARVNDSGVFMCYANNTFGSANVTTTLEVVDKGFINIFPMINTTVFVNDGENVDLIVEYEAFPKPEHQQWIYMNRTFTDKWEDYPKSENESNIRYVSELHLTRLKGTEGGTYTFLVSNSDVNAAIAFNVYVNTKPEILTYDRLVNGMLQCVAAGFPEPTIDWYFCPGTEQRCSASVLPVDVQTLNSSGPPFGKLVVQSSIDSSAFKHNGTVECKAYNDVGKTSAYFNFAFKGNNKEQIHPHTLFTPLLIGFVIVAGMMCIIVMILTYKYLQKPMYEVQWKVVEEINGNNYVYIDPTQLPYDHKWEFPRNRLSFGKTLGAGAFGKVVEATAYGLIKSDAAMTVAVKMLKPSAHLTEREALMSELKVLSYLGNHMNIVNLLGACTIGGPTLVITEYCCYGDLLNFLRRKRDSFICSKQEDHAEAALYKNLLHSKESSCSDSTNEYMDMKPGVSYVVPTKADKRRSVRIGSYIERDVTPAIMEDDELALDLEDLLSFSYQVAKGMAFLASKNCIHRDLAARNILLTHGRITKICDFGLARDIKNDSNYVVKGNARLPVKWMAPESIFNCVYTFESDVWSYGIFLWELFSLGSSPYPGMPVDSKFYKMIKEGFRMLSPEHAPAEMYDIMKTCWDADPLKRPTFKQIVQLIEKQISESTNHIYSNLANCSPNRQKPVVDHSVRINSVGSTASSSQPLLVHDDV
Sequence of UniProt Q99500 (whole entry, looked up): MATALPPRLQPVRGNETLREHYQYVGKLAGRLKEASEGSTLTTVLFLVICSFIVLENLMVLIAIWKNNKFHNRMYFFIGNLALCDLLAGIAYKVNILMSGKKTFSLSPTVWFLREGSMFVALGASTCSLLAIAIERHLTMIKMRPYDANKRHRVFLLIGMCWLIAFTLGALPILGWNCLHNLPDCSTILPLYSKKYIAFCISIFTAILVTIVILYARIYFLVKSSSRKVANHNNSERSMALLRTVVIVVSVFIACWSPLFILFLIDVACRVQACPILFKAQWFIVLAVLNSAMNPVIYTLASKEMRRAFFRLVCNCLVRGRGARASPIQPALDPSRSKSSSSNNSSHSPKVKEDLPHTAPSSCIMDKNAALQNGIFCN
Sequence of UniProt P43358 (whole entry, looked up): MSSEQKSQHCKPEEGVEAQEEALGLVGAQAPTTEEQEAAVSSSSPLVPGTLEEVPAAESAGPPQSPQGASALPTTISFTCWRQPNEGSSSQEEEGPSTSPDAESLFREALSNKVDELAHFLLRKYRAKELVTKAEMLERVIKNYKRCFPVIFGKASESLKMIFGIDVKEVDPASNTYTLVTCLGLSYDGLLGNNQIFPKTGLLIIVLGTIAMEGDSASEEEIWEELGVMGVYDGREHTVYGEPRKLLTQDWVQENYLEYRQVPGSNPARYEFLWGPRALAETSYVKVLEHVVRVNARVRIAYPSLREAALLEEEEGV
Sequence of UniProt P08173 (whole entry, looked up): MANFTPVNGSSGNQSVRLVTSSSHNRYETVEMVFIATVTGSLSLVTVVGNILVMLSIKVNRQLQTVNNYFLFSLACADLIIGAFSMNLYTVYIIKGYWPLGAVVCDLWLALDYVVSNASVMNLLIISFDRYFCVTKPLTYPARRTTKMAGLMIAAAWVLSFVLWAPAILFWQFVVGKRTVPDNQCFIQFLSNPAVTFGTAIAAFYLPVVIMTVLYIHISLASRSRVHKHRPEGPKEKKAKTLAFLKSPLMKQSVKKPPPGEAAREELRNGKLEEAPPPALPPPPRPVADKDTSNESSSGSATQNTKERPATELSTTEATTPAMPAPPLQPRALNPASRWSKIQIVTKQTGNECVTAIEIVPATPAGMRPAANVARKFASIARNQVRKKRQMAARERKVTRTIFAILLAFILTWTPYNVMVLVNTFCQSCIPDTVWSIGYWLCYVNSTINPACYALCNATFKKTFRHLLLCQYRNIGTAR
Sequence of UniProt Q13547 (whole entry, looked up): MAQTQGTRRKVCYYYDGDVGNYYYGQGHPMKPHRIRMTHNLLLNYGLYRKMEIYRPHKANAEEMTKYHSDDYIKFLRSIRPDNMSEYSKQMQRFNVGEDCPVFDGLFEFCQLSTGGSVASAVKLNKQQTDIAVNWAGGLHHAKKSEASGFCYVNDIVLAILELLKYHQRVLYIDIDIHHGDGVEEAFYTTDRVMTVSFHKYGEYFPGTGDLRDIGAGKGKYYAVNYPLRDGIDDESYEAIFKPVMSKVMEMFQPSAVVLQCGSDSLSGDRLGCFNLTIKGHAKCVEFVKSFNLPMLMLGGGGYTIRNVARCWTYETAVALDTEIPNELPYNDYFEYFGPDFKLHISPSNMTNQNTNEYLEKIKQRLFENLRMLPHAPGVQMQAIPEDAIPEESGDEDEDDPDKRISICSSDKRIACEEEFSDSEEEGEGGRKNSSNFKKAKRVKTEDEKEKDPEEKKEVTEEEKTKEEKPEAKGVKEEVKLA

CCN(CC)CC(=O)Nc1cccc(-n2cc(-c3ccc4ccc(-c5cn(-c6cccc(NC(=O)CN(CC)CC)c6)nn5)cc4c3)nn2)c1  IC50 (KIT (Homo sapiens, UniProt P10721); enzyme activity, inhibitor): > 10000 nM
Cc1cc(C(=O)NCC(F)c2ccc(Cl)cc2Cl)c(Oc2cccc(C3CC3)c2)nn1 (stereo not shown)  IC50 (serine palmitoyltransferase (Zymoseptoria tritici, UniProt F9X349+F9XMN6)): 1230 ± 155 nM
Cc1c(Cc2ccc(OC(C)(C)C(=O)O)cc2)c2ccc(C(=O)N[C@@H](C)c3cccc(C(C)C)c3)cc2n1C  IC50 (PPARG; ligand displacement, TR-FRET): 56 nM
Cc1ccc(S(=O)(=O)N2CC(NC(=O)c3ccccc3)C2=O)cc1 (stereo not shown)  IC50 (Rhomboid protease AarA; enzyme activity, inhibitor, fluorescence): 132000 nM
O=C(Cc1ccc(OCc2ccccc2)cc1)NC1(C(=O)O)CCN(C(=O)c2ccc(-c3cccc(Cl)c3)cc2)CC1  IC50 (S1PR3 (Homo sapiens, UniProt Q99500); antagonist, GloSensor cAMP): > 10000 nM
Cc1cc(C)nc(NC(=S)N2CCN(Cc3ccc(C(F)(F)F)cc3)CC2)c1  IC50 (LDHA (Homo sapiens, UniProt P00338); enzyme activity, inhibitor): > 57000 nM
Cc1nc2c(F)cc(-c3nc(Nc4ccc(NC(=O)CCCCCCC(=O)O)cc4)ncc3F)cc2n1C(C)C  IC50 (HDAC1 (Homo sapiens, UniProt Q13547); enzyme activity, inhibitor): 15 nM
Cc1nn(-c2cccc(N)c2)c(=O)c2cnc(Nc3ccc(N4CCNCC4)cc3)nc12  IC50 (MAP4K5 (Homo sapiens, UniProt Q9Y4K4); enzyme activity, inhibitor): 299 nM
CCC(Oc1cccc(Cc2c(C)n(C)c3cc(C(=O)NC(C)c4cccc(C(C)(C)C)c4)ccc23)c1)C(=O)O (mixture of isomers)  IC50 (PPARG; ligand displacement, TR-FRET): 308 nM
O=C(CCNC(=O)CNC(=O)CC(c1ccccc1)(c1ccccc1)c1ccccc1)NC[C@@H]1CCCN(C(=O)c2ccc(F)cc2)C1  IC50 (CHRM4 (Homo sapiens, UniProt P08173); ligand displacement, radioligand; cell membranes): > 30000 nM
Cc1c(Cc2ccc(OC(C)(C)C(=O)O)cc2)c2ccc(C(=O)N[C@@H](C)c3ccc(C(C)(C)C)cc3)cc2n1C  IC50 (PPARG; ligand displacement, TR-FRET): 503 nM
O=C1CC(c2ccccc2)N1S(=O)(=O)c1ccc(Cl)cc1 (stereo not shown)  IC50 (Rhomboid protease AarA; enzyme activity, inhibitor, fluorescence): 35000 nM
Cc1c(Cc2cccc(O[C@H](C)C(=O)O)c2Cl)c2ccc(C(=O)N[C@@H](C)c3ccc(C(C)(C)C)cc3)cc2n1C  IC50 (Peroxisome proliferator-activated receptor gamma, ligand-binding domain (PPARG, Homo sapiens, UniProt P37231); reporter gene, luciferase reporter; HEK293T, Gal4-PPARγ LBD): 4210 nM
Cc1ccc(S(=O)(=O)N2CC(C)C2=O)cc1 (stereo not shown)  IC50 (Rhomboid protease AarA; enzyme activity, inhibitor, fluorescence): 180000 nM
COc1cccc([C@H](C)NC(=O)c2ccc3c(Cc4cccc(OC(C)(C)C(=O)O)c4)c(C)n(C)c3c2)c1  IC50 (PPARG; ligand displacement, TR-FRET): 6 nM
CC[C@H](C)[C@@H]1NC(=O)[C@H](Cc2ccccc2)NC(=O)CCSCc2cccc(c2)CSCCNC(=O)[C@H](Cc2c[nH]cn2)NC(=O)[C@H](Cc2ccc(O)cc2)NC(=O)[C@H](CC(=O)O)NC(=O)[C@H](Cc2ccc(F)cc2)NC(=O)[C@H](CC(C)C)NC(=O)[C@H](CCCCN)NC1=O  IC50 (Melanoma-associated antigen 4, MAGE homology domain (Homo sapiens, UniProt P43358); binding, inhibitor, TR-FRET displacement; added: Alexa647-MTP-1): 203 ± 90 nM

For quick reference, copied from above:
O=C(Cc1ccc(OCc2ccccc2)cc1)NC1(C(=O)O)CCN(C(=O)c2ccc(-c3cccc(Cl)c3)cc2)CC1  IC50 (S1PR3 (Homo sapiens, UniProt Q99500); antagonist, GloSensor cAMP): > 10000 nM
Cc1c(Cc2ccc(OC(C)(C)C(=O)O)cc2)c2ccc(C(=O)N[C@@H](C)c3ccc(C(C)(C)C)cc3)cc2n1C  IC50 (PPARG; ligand displacement, TR-FRET): 503 nM
